Experimental data pooled from the literature.
Parts stem from different laboratories: compare values within a part only.
Sequence of UniProt Q9H2X6 (whole entry, looked up): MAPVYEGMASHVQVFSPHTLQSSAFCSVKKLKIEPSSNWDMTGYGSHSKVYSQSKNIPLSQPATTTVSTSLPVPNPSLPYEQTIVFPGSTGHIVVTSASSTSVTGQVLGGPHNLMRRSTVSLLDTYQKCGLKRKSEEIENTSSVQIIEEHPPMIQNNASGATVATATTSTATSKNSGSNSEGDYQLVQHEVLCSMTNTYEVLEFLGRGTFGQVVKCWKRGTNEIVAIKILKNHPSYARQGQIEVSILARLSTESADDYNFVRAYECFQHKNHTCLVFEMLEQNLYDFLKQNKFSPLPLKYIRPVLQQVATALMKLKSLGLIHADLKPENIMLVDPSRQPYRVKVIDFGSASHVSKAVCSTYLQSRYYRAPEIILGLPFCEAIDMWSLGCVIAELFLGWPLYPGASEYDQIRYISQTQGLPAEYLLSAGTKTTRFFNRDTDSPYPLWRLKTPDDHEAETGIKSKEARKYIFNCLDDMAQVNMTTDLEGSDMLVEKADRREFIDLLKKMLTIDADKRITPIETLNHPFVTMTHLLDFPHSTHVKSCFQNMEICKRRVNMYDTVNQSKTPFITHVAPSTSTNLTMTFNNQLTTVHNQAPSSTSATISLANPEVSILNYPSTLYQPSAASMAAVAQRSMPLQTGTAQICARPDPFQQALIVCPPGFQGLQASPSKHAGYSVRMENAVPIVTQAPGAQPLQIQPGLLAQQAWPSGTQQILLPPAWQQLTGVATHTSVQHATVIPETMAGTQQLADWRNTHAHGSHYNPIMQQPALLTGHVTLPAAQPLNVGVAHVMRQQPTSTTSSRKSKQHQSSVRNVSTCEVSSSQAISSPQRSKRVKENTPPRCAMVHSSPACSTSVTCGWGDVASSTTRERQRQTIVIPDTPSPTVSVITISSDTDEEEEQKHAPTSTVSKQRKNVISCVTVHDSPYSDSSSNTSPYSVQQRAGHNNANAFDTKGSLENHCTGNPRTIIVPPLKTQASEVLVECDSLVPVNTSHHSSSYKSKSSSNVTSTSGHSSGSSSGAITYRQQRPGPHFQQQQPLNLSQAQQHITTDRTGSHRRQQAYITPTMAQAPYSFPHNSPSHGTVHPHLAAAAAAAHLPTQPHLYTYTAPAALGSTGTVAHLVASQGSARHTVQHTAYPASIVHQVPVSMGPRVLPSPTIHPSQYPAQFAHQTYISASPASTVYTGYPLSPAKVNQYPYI
Sequence of UniProt Q6DT37 (whole entry, looked up): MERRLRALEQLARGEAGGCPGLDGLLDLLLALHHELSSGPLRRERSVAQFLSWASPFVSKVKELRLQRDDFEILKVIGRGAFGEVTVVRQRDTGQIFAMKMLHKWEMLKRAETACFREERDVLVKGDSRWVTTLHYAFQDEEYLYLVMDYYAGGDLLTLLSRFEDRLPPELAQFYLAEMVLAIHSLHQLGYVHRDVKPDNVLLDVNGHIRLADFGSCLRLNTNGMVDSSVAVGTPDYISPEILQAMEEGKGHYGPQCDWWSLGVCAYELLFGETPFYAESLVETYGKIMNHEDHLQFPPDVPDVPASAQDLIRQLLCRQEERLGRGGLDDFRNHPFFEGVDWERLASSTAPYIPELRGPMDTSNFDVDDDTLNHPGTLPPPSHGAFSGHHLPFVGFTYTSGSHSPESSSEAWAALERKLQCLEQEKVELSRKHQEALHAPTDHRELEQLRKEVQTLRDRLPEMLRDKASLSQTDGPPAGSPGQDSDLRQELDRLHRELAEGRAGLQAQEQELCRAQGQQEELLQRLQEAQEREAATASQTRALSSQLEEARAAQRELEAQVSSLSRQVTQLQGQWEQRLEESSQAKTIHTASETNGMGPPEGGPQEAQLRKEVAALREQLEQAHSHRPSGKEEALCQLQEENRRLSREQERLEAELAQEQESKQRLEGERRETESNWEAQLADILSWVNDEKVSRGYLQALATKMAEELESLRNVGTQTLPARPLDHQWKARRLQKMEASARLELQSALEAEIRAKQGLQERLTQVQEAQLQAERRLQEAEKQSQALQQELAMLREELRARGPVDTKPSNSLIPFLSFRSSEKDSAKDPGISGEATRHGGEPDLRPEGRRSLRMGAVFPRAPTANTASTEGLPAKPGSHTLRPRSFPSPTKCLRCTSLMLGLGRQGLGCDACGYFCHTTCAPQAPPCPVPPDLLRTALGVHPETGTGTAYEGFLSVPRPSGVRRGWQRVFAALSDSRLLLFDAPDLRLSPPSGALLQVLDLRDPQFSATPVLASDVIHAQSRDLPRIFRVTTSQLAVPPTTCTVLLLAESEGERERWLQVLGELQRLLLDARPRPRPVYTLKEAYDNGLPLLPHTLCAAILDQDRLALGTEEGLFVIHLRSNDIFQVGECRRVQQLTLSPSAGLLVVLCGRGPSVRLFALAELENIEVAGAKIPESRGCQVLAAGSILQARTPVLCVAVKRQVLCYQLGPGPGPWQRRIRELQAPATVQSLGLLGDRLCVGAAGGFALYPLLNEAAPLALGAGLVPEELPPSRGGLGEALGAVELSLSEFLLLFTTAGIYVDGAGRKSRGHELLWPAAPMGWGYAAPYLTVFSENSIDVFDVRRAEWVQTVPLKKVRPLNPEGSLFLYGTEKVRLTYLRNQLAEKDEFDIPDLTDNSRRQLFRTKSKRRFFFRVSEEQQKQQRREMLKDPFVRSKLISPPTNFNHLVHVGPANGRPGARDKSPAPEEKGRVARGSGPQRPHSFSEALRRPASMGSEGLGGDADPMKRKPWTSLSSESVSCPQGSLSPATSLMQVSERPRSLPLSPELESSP
Sequence of UniProt O95835 (whole entry, looked up): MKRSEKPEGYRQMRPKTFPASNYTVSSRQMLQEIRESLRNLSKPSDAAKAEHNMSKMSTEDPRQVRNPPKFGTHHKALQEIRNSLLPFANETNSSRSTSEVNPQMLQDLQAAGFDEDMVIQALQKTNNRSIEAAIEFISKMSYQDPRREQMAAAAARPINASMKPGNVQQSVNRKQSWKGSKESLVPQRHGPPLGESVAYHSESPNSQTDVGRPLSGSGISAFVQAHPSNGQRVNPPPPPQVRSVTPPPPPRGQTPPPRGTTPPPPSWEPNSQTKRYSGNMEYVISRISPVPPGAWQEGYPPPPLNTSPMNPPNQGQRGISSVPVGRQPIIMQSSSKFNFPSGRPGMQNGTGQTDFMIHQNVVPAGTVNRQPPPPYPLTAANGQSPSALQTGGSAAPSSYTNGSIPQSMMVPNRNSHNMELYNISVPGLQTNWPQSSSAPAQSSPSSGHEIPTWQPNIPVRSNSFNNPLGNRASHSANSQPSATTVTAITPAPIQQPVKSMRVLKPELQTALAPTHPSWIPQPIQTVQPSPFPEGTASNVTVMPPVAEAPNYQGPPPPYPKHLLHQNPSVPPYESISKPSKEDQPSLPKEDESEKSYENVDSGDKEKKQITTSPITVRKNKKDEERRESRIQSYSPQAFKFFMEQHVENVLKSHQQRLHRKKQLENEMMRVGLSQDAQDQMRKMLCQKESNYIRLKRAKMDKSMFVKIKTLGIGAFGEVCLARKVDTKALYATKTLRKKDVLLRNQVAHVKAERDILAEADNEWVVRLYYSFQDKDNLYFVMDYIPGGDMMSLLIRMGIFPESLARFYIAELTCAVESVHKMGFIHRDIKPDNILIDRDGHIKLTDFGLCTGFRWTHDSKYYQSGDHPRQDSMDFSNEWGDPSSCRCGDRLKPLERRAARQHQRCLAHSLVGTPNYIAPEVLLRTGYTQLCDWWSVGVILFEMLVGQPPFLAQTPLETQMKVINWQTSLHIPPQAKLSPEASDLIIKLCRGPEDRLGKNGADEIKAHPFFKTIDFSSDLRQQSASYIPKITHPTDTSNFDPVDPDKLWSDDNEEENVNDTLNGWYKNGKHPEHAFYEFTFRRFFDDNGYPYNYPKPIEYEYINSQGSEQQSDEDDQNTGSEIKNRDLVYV
Sequence of UniProt Q9Y6M4 (whole entry, looked up): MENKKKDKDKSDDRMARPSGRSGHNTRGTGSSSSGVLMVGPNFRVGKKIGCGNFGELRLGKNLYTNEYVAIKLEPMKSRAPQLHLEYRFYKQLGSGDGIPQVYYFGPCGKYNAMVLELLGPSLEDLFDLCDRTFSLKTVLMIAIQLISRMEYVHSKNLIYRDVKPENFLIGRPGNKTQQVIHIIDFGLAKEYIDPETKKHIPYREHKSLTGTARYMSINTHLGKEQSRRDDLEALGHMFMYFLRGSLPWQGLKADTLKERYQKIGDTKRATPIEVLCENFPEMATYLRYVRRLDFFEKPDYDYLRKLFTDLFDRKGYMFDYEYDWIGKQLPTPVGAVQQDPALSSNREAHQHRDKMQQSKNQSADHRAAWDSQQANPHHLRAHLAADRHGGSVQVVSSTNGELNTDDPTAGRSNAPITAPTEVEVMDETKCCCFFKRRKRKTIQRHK

Sample 1 — tested at: 1 µM; measurement: remaining binding
Compound: O=C(N1CCS(=O)(=O)CC1)N1C[C@H](c2ccc(OC(F)(F)F)cc2)C[C@H](c2nc(C3CC3)no2)C1
Serine/threonine-protein kinase MRCK gamma (CDC42BPG, Homo sapiens, UniProt Q6DT37); competition binding: 100%
Serine/threonine-protein kinase LATS1 (LATS1, Homo sapiens, UniProt O95835); cell-free assay, competition with immobilised ligand: 100%
Tyrosine-protein kinase ABL1, non-phosphorylated (ABL1, Homo sapiens, UniProt P00519); cell-free assay, competition with immobilised ligand: 84%
Homeodomain-interacting protein kinase 2 (HIPK2, Homo sapiens, UniProt Q9H2X6); cell-free assay, competition with immobilised ligand: 100%
Tyrosine-protein kinase ABL1, non-phosphorylated (ABL1, Homo sapiens, UniProt P00519, H396P); cell-free assay, competition with immobilised ligand: 100%
Casein kinase I isoform gamma-3 (CSNK1G3, Homo sapiens, UniProt Q9Y6M4); cell-free assay, competition with immobilised ligand: 100%

Sample 2 — cell line: A-375; tested at: 100 µM; time: 18 h; measurement: viability
Oc1c(I)cc(I)c2cccnc12: 60.8%
CC(C)(C)NCC(O)COc1cccc2c1CCC(=O)N2 (stereo not shown): 93.9%
CC(C)c1cc2c(cc1S(=O)(=O)O)[C@@]1(C)CCC[C@@](C)(C(=O)O)[C@@H]1CC2: 82.3%
CC[C@]1(O)C[C@H]2CN(CCc3c([nH]c4ccccc34)[C@@](C(=O)OC)(c3cc4c(cc3OC)N(C=O)[C@H]3[C@@](O)(C(=O)OC)[C@H](OC(C)=O)[C@]5(CC)C=CCN6CC[C@]43[C@@H]65)C2)C1: 45.2%

Sample 3 — technique: phase 2a trial; host: idiopathic pulmonary fibrosis patients; measurement: patients with abdominal discomfort
SMILES: CC(C)n1cnc(-c2ccc(F)cc2)c1-c1ncc(C(=O)Nc2ccc(N3CCN(C)CC3)cc2)[nH]1
30 mg once daily, adverse event grade 2: 0%
60 mg once daily, adverse event grade 3: 0%
30 mg once daily, adverse event grade 3: 0%
60 mg once daily, adverse event grade 2: 0%

Sample 4 — effect on: enzyme activity; action: inhibitor; tested at: 0.5 µM; relative to: control; measurement: remaining activity
Target: Mitogen-activated protein kinase 3 (MAPK3, Homo sapiens, UniProt P27361)
Sequence of UniProt P27361 (whole entry, looked up): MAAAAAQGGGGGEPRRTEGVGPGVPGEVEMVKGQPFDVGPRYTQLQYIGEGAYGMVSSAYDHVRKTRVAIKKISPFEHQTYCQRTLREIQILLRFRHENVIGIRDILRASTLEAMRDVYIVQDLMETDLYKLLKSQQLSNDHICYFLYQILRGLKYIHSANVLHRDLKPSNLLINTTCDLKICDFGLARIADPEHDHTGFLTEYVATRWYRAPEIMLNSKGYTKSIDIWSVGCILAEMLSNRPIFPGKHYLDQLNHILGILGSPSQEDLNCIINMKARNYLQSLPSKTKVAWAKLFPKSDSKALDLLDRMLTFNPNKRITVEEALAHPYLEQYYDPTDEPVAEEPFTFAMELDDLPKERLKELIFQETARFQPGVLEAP
Nc1[nH]nc2nc3ccccc3nc12: 113%
O=C1NC(=O)C(c2cn(CCCn3ccnc3)c3ccccc23)=C1Nc1ccccc1: 103%
Cc1cccc(-c2[nH]c(C(C)(C)C)nc2-c2ccc3c(c2)OCO3)n1: 111%
O=C(Nc1cccc(Nc2cc(Nc3cccc(C(F)(F)F)c3)ncn2)c1)C1CC1: 101%
NCCNc1ncc(C(N)=O)c(Nc2cccc(C(F)(F)F)c2)n1: 100%
CCOC(=O)c1c(C)[nH]c(/C=C2\C(=O)Nc3ccccc32)c1C: 101%
OCC(O)CCON=C1C(c2c(O)[nH]c3ccccc23)=Nc2ccccc21 (stereo not shown): 98.7%
Oc1ccc(-c2nc(-c3ccncc3)c(-c3ccc(F)cc3)[nH]2)cc1: 101%
C#Cc1cccc(Nc2ncnc3cc(OCCOC)c(OCCOC)cc23)c1: 101%
Cn1c2ccccc2c2c3c(c4c5ccccc5n(CCC#N)c4c21)CNC3=O: 72.5%
Nc1ncnc2n[nH]c(Nc3ccc(F)cc3)c12: 105%
CO[C@H]1C[C@@H]2CC[C@@H](C)[C@@](O)(O2)C(=O)C(=O)N2CCCC[C@H]2C(=O)O[C@H]([C@H](C)C[C@@H]2CC[C@@H](O)[C@H](OC)C2)CC(=O)[C@H](C)/C=C(\C)[C@@H](O)[C@@H](OC)C(=O)[C@H](C)C[C@H](C)/C=C/C=C/C=C/1C: 104%
Nc1ccc2ncnc(NCCc3ccc(Oc4ccccc4)cc3)c2c1: 105%
COc1cc2ncnc(Nc3ccc(F)c(Cl)c3)c2cc1OCCCN1CCOCC1: 100%

Repeated from above (sample 4):
Oc1ccc(-c2nc(-c3ccncc3)c(-c3ccc(F)cc3)[nH]2)cc1: 101%
C#Cc1cccc(Nc2ncnc3cc(OCCOC)c(OCCOC)cc23)c1: 101%
Cn1c2ccccc2c2c3c(c4c5ccccc5n(CCC#N)c4c21)CNC3=O: 72.5%
